Published values collected from several papers.
Each line is one published result; not all experiments were run side by side.
MPO: Myeloperoxidase (MPO, Homo sapiens, UniProt P05164)
UniProt P05164, sequence (whole entry, looked up): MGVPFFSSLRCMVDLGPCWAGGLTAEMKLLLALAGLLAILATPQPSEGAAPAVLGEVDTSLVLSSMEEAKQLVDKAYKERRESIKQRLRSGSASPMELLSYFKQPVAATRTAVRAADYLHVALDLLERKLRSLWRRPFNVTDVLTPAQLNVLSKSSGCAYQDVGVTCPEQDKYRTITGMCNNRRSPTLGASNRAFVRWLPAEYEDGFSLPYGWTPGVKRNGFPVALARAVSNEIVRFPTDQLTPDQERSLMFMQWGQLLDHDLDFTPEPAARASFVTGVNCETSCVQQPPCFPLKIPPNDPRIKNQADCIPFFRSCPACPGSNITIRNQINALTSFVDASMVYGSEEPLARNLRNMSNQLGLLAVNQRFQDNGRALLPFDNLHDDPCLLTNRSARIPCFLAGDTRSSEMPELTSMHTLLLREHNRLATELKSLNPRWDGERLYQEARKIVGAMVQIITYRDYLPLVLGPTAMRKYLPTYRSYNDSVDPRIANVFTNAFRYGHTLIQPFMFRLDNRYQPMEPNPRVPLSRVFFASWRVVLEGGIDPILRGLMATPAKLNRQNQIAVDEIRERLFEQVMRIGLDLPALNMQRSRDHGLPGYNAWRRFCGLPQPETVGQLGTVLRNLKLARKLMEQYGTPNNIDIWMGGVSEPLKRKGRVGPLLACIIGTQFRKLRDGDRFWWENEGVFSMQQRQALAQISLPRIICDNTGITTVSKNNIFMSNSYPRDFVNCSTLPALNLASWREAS
SLC6A4: Sodium-dependent serotonin transporter (SLC6A4, Homo sapiens, UniProt P31645)
UniProt P31645, sequence (whole entry, looked up): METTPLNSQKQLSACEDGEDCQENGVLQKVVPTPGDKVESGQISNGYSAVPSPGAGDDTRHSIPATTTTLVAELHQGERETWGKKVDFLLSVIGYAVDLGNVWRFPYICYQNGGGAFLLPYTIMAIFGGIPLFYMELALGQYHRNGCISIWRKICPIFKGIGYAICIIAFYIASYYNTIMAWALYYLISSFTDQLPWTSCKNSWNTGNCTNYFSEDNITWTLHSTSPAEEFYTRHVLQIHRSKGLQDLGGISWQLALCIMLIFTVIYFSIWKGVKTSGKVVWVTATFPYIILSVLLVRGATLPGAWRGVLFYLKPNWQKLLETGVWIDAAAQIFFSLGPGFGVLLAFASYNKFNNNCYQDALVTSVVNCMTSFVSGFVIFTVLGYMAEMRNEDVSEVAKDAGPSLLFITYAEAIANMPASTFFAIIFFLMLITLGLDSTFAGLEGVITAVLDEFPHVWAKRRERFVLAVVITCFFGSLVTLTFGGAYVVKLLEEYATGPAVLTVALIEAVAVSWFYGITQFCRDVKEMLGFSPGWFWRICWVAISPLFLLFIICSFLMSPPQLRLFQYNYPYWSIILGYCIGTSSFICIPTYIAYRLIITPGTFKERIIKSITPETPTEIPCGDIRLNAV
PTGS2: Prostaglandin G/H synthase 2 (PTGS2, Homo sapiens, UniProt P35354)
UniProt P35354, sequence (whole entry, looked up): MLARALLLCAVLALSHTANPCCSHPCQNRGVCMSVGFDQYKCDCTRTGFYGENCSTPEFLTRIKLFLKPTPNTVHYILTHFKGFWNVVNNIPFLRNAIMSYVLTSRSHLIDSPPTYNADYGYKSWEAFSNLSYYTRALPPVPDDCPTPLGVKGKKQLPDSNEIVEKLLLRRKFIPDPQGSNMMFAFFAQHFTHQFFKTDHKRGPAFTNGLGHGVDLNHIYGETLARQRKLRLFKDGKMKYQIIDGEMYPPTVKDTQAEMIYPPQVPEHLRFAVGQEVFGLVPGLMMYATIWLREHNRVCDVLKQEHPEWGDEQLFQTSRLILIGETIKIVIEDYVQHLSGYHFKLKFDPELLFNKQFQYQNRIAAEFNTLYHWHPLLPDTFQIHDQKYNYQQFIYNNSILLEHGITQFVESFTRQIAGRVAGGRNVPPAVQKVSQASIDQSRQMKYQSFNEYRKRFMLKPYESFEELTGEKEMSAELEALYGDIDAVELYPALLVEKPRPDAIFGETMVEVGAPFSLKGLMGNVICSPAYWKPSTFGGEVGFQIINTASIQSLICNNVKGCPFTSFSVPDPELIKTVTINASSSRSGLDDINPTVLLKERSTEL
USP51: Ubiquitin carboxyl-terminal hydrolase 51 (USP51, Homo sapiens, UniProt Q70EK9)
UniProt Q70EK9, sequence (whole entry, looked up): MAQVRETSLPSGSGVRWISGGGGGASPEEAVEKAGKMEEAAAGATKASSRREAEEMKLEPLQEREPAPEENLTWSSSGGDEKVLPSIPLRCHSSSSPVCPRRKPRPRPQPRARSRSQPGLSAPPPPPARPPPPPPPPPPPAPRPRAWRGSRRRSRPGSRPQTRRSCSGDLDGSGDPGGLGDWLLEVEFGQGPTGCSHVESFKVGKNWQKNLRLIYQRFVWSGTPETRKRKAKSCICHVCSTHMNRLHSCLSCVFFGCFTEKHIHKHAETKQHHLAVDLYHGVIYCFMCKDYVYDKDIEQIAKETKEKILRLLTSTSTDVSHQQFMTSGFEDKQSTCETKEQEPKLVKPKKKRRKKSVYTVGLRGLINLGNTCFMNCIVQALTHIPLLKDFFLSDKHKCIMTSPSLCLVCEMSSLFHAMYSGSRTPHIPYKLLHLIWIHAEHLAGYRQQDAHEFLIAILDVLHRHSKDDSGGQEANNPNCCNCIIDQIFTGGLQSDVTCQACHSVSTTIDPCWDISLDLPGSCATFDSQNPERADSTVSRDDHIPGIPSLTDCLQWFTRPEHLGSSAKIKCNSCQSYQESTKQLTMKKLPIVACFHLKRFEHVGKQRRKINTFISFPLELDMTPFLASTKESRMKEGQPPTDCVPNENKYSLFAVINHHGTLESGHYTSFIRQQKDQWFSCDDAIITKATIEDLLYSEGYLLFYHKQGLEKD
PDE10A: cAMP and cAMP-inhibited cGMP 3',5'-cyclic phosphodiesterase 10A (PDE10A, Homo sapiens, UniProt Q9Y233)
UniProt Q9Y233, sequence (whole entry, looked up): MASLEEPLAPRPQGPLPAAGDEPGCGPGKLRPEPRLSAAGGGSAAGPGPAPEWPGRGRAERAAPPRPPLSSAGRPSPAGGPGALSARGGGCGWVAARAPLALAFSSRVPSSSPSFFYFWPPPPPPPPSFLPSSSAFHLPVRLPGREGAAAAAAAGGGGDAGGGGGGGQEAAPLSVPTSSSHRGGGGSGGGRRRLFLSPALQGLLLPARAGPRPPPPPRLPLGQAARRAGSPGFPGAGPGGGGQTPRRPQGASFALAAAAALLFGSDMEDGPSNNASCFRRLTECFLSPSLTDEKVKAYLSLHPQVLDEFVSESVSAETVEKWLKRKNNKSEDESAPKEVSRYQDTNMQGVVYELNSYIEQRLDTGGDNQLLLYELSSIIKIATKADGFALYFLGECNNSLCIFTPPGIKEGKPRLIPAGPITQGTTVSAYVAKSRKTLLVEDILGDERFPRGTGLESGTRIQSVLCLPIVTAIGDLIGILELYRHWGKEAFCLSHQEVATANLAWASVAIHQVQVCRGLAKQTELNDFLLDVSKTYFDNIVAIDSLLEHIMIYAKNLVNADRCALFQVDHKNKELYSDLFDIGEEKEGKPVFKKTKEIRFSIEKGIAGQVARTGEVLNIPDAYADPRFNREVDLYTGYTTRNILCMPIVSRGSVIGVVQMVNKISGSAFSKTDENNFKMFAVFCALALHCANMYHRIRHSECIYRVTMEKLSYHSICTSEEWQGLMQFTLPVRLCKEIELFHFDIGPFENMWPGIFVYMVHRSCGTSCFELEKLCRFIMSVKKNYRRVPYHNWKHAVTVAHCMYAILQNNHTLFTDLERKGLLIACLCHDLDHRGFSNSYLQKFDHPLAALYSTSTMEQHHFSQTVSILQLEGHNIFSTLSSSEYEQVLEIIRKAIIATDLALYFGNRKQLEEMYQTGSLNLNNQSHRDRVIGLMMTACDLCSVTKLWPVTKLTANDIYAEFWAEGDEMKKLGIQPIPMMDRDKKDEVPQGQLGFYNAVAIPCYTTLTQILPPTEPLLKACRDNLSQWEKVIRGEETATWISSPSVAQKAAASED
HDAC1: Histone deacetylase 1 (HDAC1, Homo sapiens, UniProt Q13547)
UniProt Q13547, sequence (whole entry, looked up): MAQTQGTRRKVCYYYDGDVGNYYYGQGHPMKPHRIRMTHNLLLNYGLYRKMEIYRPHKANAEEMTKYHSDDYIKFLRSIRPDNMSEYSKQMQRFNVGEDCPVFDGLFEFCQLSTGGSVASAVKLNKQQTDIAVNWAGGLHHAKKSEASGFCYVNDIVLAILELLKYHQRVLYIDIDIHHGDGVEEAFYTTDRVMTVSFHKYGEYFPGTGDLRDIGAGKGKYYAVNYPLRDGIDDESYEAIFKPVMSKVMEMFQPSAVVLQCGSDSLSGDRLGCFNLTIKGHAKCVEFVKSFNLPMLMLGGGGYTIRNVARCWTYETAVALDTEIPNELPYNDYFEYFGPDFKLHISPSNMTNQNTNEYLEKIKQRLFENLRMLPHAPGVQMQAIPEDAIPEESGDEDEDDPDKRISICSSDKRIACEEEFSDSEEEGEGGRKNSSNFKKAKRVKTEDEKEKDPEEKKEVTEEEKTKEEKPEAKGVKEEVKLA
SIRT6: NAD-dependent protein deacylase sirtuin-6 (SIRT6, Homo sapiens, UniProt Q8N6T7)
UniProt Q8N6T7, sequence (whole entry, looked up): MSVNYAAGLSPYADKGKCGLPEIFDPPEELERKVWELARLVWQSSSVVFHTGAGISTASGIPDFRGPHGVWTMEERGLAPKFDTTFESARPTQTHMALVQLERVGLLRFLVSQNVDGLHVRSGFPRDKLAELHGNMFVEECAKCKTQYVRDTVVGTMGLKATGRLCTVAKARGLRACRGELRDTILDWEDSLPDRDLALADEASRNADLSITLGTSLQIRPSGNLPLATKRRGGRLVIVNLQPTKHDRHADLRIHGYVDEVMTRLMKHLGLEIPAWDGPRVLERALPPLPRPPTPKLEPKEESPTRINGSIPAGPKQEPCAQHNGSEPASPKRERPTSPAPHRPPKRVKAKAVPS
SCN1A: Sodium channel protein type 1 subunit alpha (SCN1A, Homo sapiens, UniProt P35498)
HDAC8: Histone deacetylase 8 (HDAC8, Homo sapiens, UniProt Q9BY41)
UniProt Q9BY41, sequence (whole entry, looked up): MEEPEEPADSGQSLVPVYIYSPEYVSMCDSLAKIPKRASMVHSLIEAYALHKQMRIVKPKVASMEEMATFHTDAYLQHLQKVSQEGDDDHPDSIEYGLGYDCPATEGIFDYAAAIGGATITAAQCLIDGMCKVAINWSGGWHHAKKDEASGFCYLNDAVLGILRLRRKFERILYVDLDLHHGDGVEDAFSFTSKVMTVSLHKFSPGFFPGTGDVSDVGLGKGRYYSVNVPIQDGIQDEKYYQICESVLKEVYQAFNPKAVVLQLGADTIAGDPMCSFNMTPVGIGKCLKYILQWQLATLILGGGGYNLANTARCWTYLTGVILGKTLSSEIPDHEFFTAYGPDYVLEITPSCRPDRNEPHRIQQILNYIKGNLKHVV

For `CC(C)OCCn1c(=S)[nH]c(=O)c2[nH]ccc21`, the inhibition was 98.9% (MPO; enzyme activity, inhibitor, fluorescence; 5 µM).
The inhibition of `CCOC(=O)C12CC1C(n1ccc3c(NC4CC4)nc(C#Cc4ccccc4)nc31)C(O)C2O` (centres unmarked) is reported as -18% (SLC6A4; ligand displacement, radioligand; 10 µM).
`COc1ccc(-c2cc(=O)c3c(O)cc(O[C@@H]4O[C@H](CO)[C@@H](O)[C@H](O)[C@H]4O)cc3o2)cc1O` has an inhibition of 26.2% (PTGS2; enzyme activity, inhibitor; 0.12 µg/mL).
With `Cc1ncc(CO)c(CO)c1O` the inhibition was 30% (USP51; enzyme activity, inhibitor; 5 µM).
For `N#CC[C@@]12C[C@@H]1[C@@H](n1cnc3c(NCCCCCc4ccccc4)nc(C#Cc4ccc(Cl)s4)nc31)[C@H](O)[C@@H]2O`, the inhibition was 0% (SLC6A4; ligand displacement, radioligand; 10 µM).
`CCCCCCC#Cc1cncc(-c2nnc(SCc3cc([N+](=O)[O-])cc([N+](=O)[O-])c3)n2CCCN)c1` has an inhibition of 100% (mraY (Staphylococcus aureus, UniProt Q2FZ93); cell-free assay, inhibitor; 250 µM).
`c1ccc(-c2cccc(Cc3ccnc4ccc(C5COC5)cc34)c2)cc1` has an inhibition of 39% (PDE10A; enzyme activity, inhibitor, FP; 0.1 µM).
`O=C(NO)c1cccc(OS(=O)(=O)Oc2ccc(Oc3ccccc3)cc2)c1` gave an inhibition of 28% (HDAC1; enzyme activity, inhibitor, fluorescence; 10 µM).
For `O=c1ccc2ccc(O)c(O)c2o1`, the inhibition was 93% (USP51; enzyme activity, inhibitor; 5 µM).
`O=C(O)c1ccc(O)cc1` gave an inhibition of 3.08% (PTGS2; enzyme activity, inhibitor; 0.12 µg/mL).
`CC(C)c1[nH]c2nc(N)nn2c(=O)c1Cc1cccc(Cl)c1` gave an inhibition of 83% (CCR5 (Homo sapiens, UniProt P51681); β-arrestin recruitment, antagonist; 1 µM).
With `NC(=O)c1ccc(C(=O)NOCc2ccc(F)cc2)cc1` the inhibition was 73.7% (SIRT6; enzyme activity, inhibitor, fluorescence; 100 µM).
`Cc1cc(O)c(-c2ccc([C@@H](C)CN(C)C)cc2)c2c1[nH]c(=O)c1sccc12` gave an inhibition of 5.18% (TP53RK (Homo sapiens, UniProt Q96S44); cell-free assay, inhibitor; 0.1 µM, lysate).
`C#Cc1cc(-c2cc(Nc3nc(N[C@@H](C)c4ccc(F)cn4)ncc3Cl)n[nH]2)ccc1C=O` gave an inhibition of 2.35% (CAMK1D (Homo sapiens, UniProt Q8IU85); enzyme activity, inhibitor; 0.2 µM).
For `COc1ccc(Cl)cc1-c1cc(=O)[nH]c(=S)n1CC(N)=O`, the inhibition was 95.2% (MPO; enzyme activity, inhibitor, fluorescence; 1.667 µM).
With `CCCN1C[C@H](CSC)C[C@@H]2c3cccc4[nH]cc(c34)C[C@H]21` the inhibition was 61.4% (SCN1A; ion current, inhibitor, patch clamp; 10 µM).
For `C[C@]12CC[C@@H]3c4ccc(O)cc4CC[C@H]3[C@@H]1CC[C@@H]2O`, the inhibition was 12% (USP51; enzyme activity, inhibitor; 5 µM).
`CC[C@H](C)[C@H](NC(=O)[C@H](CCC(N)=O)NC(=O)[C@H](CC(C)C)NC(=O)[C@H](CCSC)NC(=O)[C@H](CCCCN)NC(=O)[C@H](CO)NC(=O)[C@H](CO)NC(=O)[C@H](CCSC)NC(=O)[C@H](CC(C)C)NC(=O)[C@H](CC(N)=O)NC(=O)[C@@H](NC(=O)[C@@H](NC(=O)[C@H](CO)NC(=O)[C@H](CC(C)C)NC(=O)[C@H](CS)NC(=O)[C@H](CCCNC(=N)N)NC(=O)[C@H](CC(=O)O)NC(=O)[C@H](Cc1c[nH]c2ccccc12)NC(=O)[C@H](Cc1ccccc1)NC(=O)[C@H](C)NC(=O)[C@H](CCC(=O)O)NC(=O)[C@@H](N)CCCCN)C(C)C)[C@@H](C)CC)C(=O)N[C@@H](CC(N)=O)C(=O)N[C@@H](C)C(=O)O` gave an inhibition of 76% (Cyclin-dependent kinase 5, with p35 (CDK5, Homo sapiens, UniProt Q00535); enzyme activity, inhibitor, radiometric; 500 µM).
With `OC[C@H]1OC(O)[C@H](O)[C@@H](O)[C@@H]1O` (some centres unmarked) the inhibition was 15% (USP51; enzyme activity, inhibitor; 5 µM).
The inhibition of `C=C[C@@]1(C)C=C2CC[C@@H]3[C@](C)(CCC[C@@]3(C)C(=O)O)[C@H]2CC1` is reported as 0% (PTGS2; enzyme activity, inhibitor; 0.12 µg/mL).
`Cc1cc(C(C)(C)C)ccc1OS(=O)(=O)Oc1cccc(C(=O)NO)c1C` has an inhibition of 17% (HDAC8; enzyme activity, inhibitor, fluorescence; 10 µM).
`COc1cc(-c2cc(=O)c3c(O)cc(O)cc3o2)ccc1O` gave an inhibition of 6.19% (PTGS2; enzyme activity, inhibitor; 0.98 µg/mL).
`COc1ccc(C(=O)c2nccc3cc(OC)c(OC)cc23)cc1` gave an inhibition of 32% (PDE10A; enzyme activity, inhibitor, FP; 0.1 µM).
`CC(=O)O[C@H]1C(=O)[C@@]2(C)[C@H]([C@H](OC(=O)c3ccccc3)[C@]3(O)C[C@H](OC(=O)[C@H](O)[C@@H](NC(=O)c4ccccc4)c4ccccc4)C(C)=C1C3(C)C)[C@]1(OC(C)=O)CO[C@@H]1C[C@@H]2O` gave an inhibition of 13% (USP51; enzyme activity, inhibitor; 5 µM).
The inhibition of `CN1CC(Oc2cnc(C#N)cc2-c2ccn3nc(NC(=O)C4CC4)cc3c2)C1` is reported as 1% (EPHB4 (Homo sapiens, UniProt P54760); enzyme activity, inhibitor; 1 µM).
`Cn1c(=O)c2[nH]cnc2n(C)c1=O` has an inhibition of 4.59% (SCN1A; ion current, inhibitor, patch clamp; 30 µM).
With `C=C1CC[C@@H]2[C@](C)(CO)[C@H](O)CC[C@@]2(C)[C@@H]1C/C=C1/C(=O)OC[C@H]1O` the inhibition was 20% (USP51; enzyme activity, inhibitor; 5 µM).
With `Cc1ccccc1Sc1ccc(CONC(=O)c2ccc(C(N)=O)cc2)cc1C(F)(F)F` the inhibition was 100% (SIRT6; enzyme activity, inhibitor, fluorescence; 100 µM).
For `COc1cc([C@H]2OC[C@H]3[C@@H]2CO[C@@H]3c2cc(OC)c(O)c(OC)c2)cc(OC)c1O`, the inhibition was 59.3% (PTGS2; enzyme activity, inhibitor; 1.95 µg/mL).
For `CNc1ncc2c(/C=C/C(=O)N3CCC(OC)CC3)nn(Cc3cccc(C(F)(F)F)c3)c2n1`, the remaining activity was 89% (Cyclin-dependent kinase 1, with cyclin E1 (CDK1, Homo sapiens, UniProt P06493); enzyme activity, inhibitor, radiometric; 1 µM).
`COc1cc(-c2cncc3c2CN(C)Cc2cc(N4CCNCC4)ccc2-3)cc(OC)c1OC` gave a remaining activity of 95% (MAP3K7 (Homo sapiens, UniProt O43318); enzyme activity, inhibitor; 1 µM).
`Cc1ncsc1-c1ccc(CNC(=O)[C@@H]2C[C@@H](O)CN2C(=O)[C@@H](NC(=O)CCCCCCCCNC(=O)CN2CCN(C(=O)c3ccc(Nc4nc(C5CC5)cn5c(-c6cn[nH]c6)cnc45)c(F)c3)CC2)C(C)(C)C)cc1` gave an inhibition of greater than 65% (NTRK2 (Homo sapiens, UniProt Q16620); cell-free assay, competition with immobilised ligand; 1 µM).
The inhibition of `COc1ccc(Cc2nccc3ccc(C4COC4)cc23)cc1OC` is reported as 4% (PDE10A; enzyme activity, inhibitor, FP; 0.1 µM).
With `O=C(NO)c1cccc(OS(=O)(=O)Oc2ccc([N+](=O)[O-])cc2)c1` the inhibition was 30% (HDAC1; enzyme activity, inhibitor, fluorescence; 5 µM).
For `O=C(O)/C=C/c1ccc(O)c(O)c1`, the inhibition was 47% (USP51; enzyme activity, inhibitor; 5 µM).
`Cc1cc(OS(=O)(=O)Oc2cccc(C(C)C)c2)cc(C(=O)NO)c1` has an inhibition of 11% (HDAC1; enzyme activity, inhibitor, fluorescence; 10 µM).
For `CC[C@H](C)[C@H](NC(=O)[C@H](CCC(N)=O)NC(=O)[C@@H](NC(=O)[C@H](CCSC)NC(=O)[C@H](CCCCN)NC(=O)[C@H](CO)NC(=O)[C@@H](NC(=O)[C@H](CCSC)NC(=O)[C@H](CC(C)C)NC(=O)[C@H](CC(N)=O)NC(=O)[C@@H](NC(=O)[C@@H](NC(=O)[C@H](CO)NC(=O)[C@H](CC(C)C)NC(=O)[C@H](C)NC(=O)[C@H](CCCNC(=N)N)NC(=O)[C@H](CCC(=O)O)NC(=O)[C@H](Cc1ccc(O)cc1)NC(=O)[C@H](Cc1ccccc1)NC(=O)[C@H](C)NC(=O)[C@H](CC(N)=O)NC(=O)[C@@H](N)CCCCN)[C@@H](C)CC)[C@@H](C)CC)[C@@H](C)O)C(C)C)C(=O)N[C@@H](CC(N)=O)C(=O)N[C@H](C(=O)O)C(C)C`, the inhibition was -15% (GSK3B (Homo sapiens, UniProt P49841); enzyme activity, inhibitor, radiometric; 100 µM).
With `O=c1cc(-c2ccc(O)c(O)c2)oc2cc(O)cc(O)c12` the inhibition was 100% (PTGS2; enzyme activity, inhibitor; 7.81 µg/mL).
For `CC(C)c1cccc(OS(=O)(=O)Oc2cc(F)cc(C(=O)NO)c2)c1`, the inhibition was 9% (HDAC1; enzyme activity, inhibitor, fluorescence; 10 µM).
For `CC[C@H](C)C(=O)O[C@H]1C[C@@H](C)C=C2C=C[C@H](C)[C@H](CC[C@@H]3C[C@@H](O)CC(=O)O3)[C@H]21`, the inhibition was 93% (USP51; enzyme activity, inhibitor; 5 µM).
`O=C(NO)c1cccc(OS(=O)(=O)Oc2ccccc2OCc2ccccc2)c1` gave an inhibition of 26% (HDAC1; enzyme activity, inhibitor, fluorescence; 10 µM).
With `NC/C(=C\F)COc1cccc(Cn2c(=S)[nH]c(=O)c3[nH]cnc32)c1` the inhibition was less than 50% (PTAFR (Homo sapiens, UniProt P25105); ligand displacement, radioligand; 10 µM).
With `Cc1cc(OS(=O)(=O)Oc2ccc(C(C)(C)C)cc2)cc(C(=O)NO)c1` the inhibition was 25% (HDAC8; enzyme activity, inhibitor, fluorescence; 10 µM).
For `S=C(NCc1ccc(Cl)cc1)NN=Cc1ccc(N2CCCCC2)cc1`, the inhibition was 88.9% (DHFR (Homo sapiens, UniProt P00374); enzyme activity, inhibitor; 500 µM).

Some of these lines once more:
`Cc1ncsc1-c1ccc(CNC(=O)[C@@H]2C[C@@H](O)CN2C(=O)[C@@H](NC(=O)CCCCCCCCNC(=O)CN2CCN(C(=O)c3ccc(Nc4nc(C5CC5)cn5c(-c6cn[nH]c6)cnc45)c(F)c3)CC2)C(C)(C)C)cc1` gave an inhibition of greater than 65% (NTRK2 (Homo sapiens, UniProt Q16620); cell-free assay, competition with immobilised ligand; 1 µM).
The inhibition of `COc1ccc(Cc2nccc3ccc(C4COC4)cc23)cc1OC` is reported as 4% (PDE10A; enzyme activity, inhibitor, FP; 0.1 µM).
With `O=C(NO)c1cccc(OS(=O)(=O)Oc2ccc([N+](=O)[O-])cc2)c1` the inhibition was 30% (HDAC1; enzyme activity, inhibitor, fluorescence; 5 µM).
For `O=C(O)/C=C/c1ccc(O)c(O)c1`, the inhibition was 47% (USP51; enzyme activity, inhibitor; 5 µM).
`Cc1cc(OS(=O)(=O)Oc2cccc(C(C)C)c2)cc(C(=O)NO)c1` has an inhibition of 11% (HDAC1; enzyme activity, inhibitor, fluorescence; 10 µM).
